Measurements pooled from the literature.
Protocols differ between the studies behind these lines. ± gives the spread as reported. ≈ marks a conversion by molar mass, not a printed value.

| Compound | test | system | conditions | scale | endpoint | value |
| --- | --- | --- | --- | --- | --- | --- |
| CCCSc1nc(N[C@@H]2C[C@H]2c2ccc(F)c(F)c2)c2nnn([C@@H]3C[C@H](OCCO)[C@@H](O)[C@H]3O)c2n1 | – | female Wistar Han rats, plasma | oral, 60 mg/kg/day, week 26, carcinogenicity study | – | AUC | 131 µM·h |
| CCCC[C@H](NC(C)=O)C(=O)N[C@H]1CCC(=O)NC[C@@H](C(=O)N[C@@H](Cc2c[nH]c3ccccc23)C(N)=O)NC(=O)[C@H](CCCNC(=N)N)NC(=O)[C@@H](Cc2ccccc2)NC(=O)[C@H](Cc2c[nH]cn2)NC1=O | – | beagle dog, male, plasma | subcutaneous, 8.0 mg/kg daily, day 14 | – | Tmax | 0.5 h |
| CC[C@H](C)[C@@H]1NC(=O)[C@H](Cc2ccc(O)cc2)NC(=O)[C@@H](N)CSSC[C@@H](C(=O)N2CCC[C@H]2C(=O)N[C@@H](CC(C)C)C(=O)NCC(N)=O)NC(=O)[C@H](CC(N)=O)NC(=O)[C@H](CCC(N)=O)NC1=O | microdialysis, radioimmunoassay | knock-out male mice lacking compound, amygdala extracellular fluid | intranasal, 12 µg, incremental area over baseline | – | AUC above baseline | 254 ± 113 pg·30 min/sample |
| Cc1cc(Nc2cc3ncccc3c(N[C@@H]3C[C@H]4CC[C@@H](C3)N4CCC#N)n2)n[nH]1 | – | Sprague-Dawley rat, female, plasma | oral, 30 mg/kg/day, last day of 4 weeks | – | Cmax | 4.82 ng/mL |
| CC[C@H](C)[C@H](NC(=O)[C@H](Cc1ccccc1)NC(=O)[C@H](CCC(=O)O)NC(=O)[C@H](CCCCNC(=O)COCCOCCNC(=O)COCCOCCNC(=O)CC[C@H](NC(=O)CCCCCCCCCCCCCCCCC(=O)O)C(=O)O)NC(=O)[C@H](C)NC(=O)[C@H](C)NC(=O)[C@H](CCC(N)=O)NC(=O)CNC(=O)[C@H](CCC(=O)O)NC(=O)[C@H](CC(C)C)NC(=O)[C@H](Cc1ccc(O)cc1)NC(=O)[C@H](CO)NC(=O)[C@H](CO)NC(=O)[C@@H](NC(=O)[C@H](CC(=O)O)NC(=O)[C@H](CO)NC(=O)[C@@H](NC(=O)[C@H](Cc1ccccc1)NC(=O)[C@@H](NC(=O)CNC(=O)[C@H](CCC(=O)O)NC(=O)C(C)(C)NC(=O)[C@@H](N)Cc1cnc[nH]1)[C@@H](C)O)[C@@H](C)O)C(C)C)C(=O)N[C@@H](C)C(=O)N[C@@H](Cc1c[nH]c2ccccc12)C(=O)N[C@@H](CC(C)C)C(=O)N[C@H](C(=O)N[C@@H](CCCNC(=N)N)C(=O)NCC(=O)N[C@@H](CCCNC(=N)N)C(=O)NCC(=O)O)C(C)C | – | human lowest body weight | 1.0 mg once weekly, 39.7-60.2 kg | – | average steady-state concentration | 43.6 nmol/L |
| CCN(CC)CCNC(=O)c1c(C)[nH]c(/C=C2\C(=O)Nc3ccc(F)cc32)c1C | – | human, plasma | oral, 15 mg/m2, day 21 | – | maximum trough plasma concentration | 64.2 ng/mL |
| C[C@H](Cn1cnc2c(N)ncnc21)OCP(=O)(O)O | population PK model, measured: tenofovir | human, HIV patients, plasma | oral, tenofovir alafenamide dosed, Black and Hispanic patients | relative to: White and Asian patients | clearance increase | 12% |
| Cc1[nH]c(=O)c(CNC(=O)c2ccc([N+](=O)[O-])s2)c2c1CCCC2 | U-HPLC | 20% DMSO in water | – | – | kinetic solubility | 130 µg/mL (≈ 373 µM) |
| C[C@H](N)C(=O)N[C@H](Cc1c[nH]c2ccccc12)C(=O)N[C@@H](Cc1ccccc1)C(=O)N[C@H](C(=O)N1CCC(C(N)=O)CC1)[C@@H](c1ccccc1)c1c[nH]c2ccccc12 | RP-HPLC Kinetex Biphenyl | – | acetonitrile/water TFA gradient | – | HPLC retention | 43.5 %B |
| CC[C@H](C)[C@@H]1NC(=O)[C@H](CCCNC(=N)N)NC(=O)[C@H](CC(=O)O)NC(=O)[C@H](CC(C)C)NC(=O)[C@H](CCCCN)NC(=O)[C@H](CC(C)C)NC(=O)CNC(=O)[C@H](Cc2ccccc2)NC(=O)[C@@H](NC(=O)CNC(=O)[C@H](CCCCN)NC(=O)[C@H](CO)NC(=O)[C@H](CC(C)C)NC(=O)CNC(=O)[C@H](CCCCN)NC(=O)[C@H](CCCCN)NC(=O)[C@H](CC(N)=O)NC(=O)[C@H](C)NC(=O)CNC(=O)[C@H](CCCCN)NC(=O)[C@H](Cc2ccc(O)cc2)NC(=O)[C@H](CCCCN)NC(=O)[C@H](CCCNC(=N)N)NC(=O)[C@H](C)NC(=O)[C@H](CC(N)=O)NC(=O)[C@@H]2CCCN2C(=O)[C@H](Cc2c[nH]cn2)NC(=O)[C@H](CCC(=O)O)NC(=O)[C@H](CCC(N)=O)NC(=O)CNC(=O)[C@@H]2CCCN2)CSSC[C@@H](C(=O)O)NC(=O)CNC(=O)[C@H](CC(C)C)NC(=O)CNC(=O)[C@H](CO)NC(=O)[C@H](CCSC)NC(=O)[C@H](CO)NC(=O)CNC1=O | – | – | 100 µM, pH 7.4 or 7.7, 37 °C | – | isoaspartate formation half-life | ~120 h |
| CCOC(=O)C1=C[C@@H](OC(CC)CC)[C@H](NC(C)=O)[C@@H](N)C1 | – | healthy Indian human, plasma | oral, 75 mg single, test capsule fed | – | AUC(0-48 h) | 145 ± 32 ng·h/mL |
| COc1ccc(-c2cc(=O)c3c(O)c(OC)c(OC)c(OC)c3o2)cc1OC | – | C57BL/6 mouse, male, testes | oral, 1% w/w in diet, 6 weeks, orange peel extract diet | relative to: content in orange peel | tissue to peel content ratio | 0.234% |
| O=C(O)/C=C/c1ccccc1 | – | rat plasma QC sample | 1 ng/mL nominal, 24 h, low QC level autosampler stability | – | measured concentration | 1.06 ± 0.09 ng/mL |
| CC(C)[C@@H](CS(=O)(=O)C(C)C)N1C(=O)[C@@](C)(CC(=O)O)C[C@H](c2cccc(Cl)c2)[C@H]1c1ccc(Cl)cc1 | – | human, plasma | oral, 60 mg, new tablet fasted | – | AUC(0-24) geometric LS mean | 2180 ng·h/mL |

Some of these lines once more:
| Compound | test | system | conditions | scale | endpoint | value |
| --- | --- | --- | --- | --- | --- | --- |
| CC[C@H](C)[C@H](NC(=O)[C@H](Cc1ccccc1)NC(=O)[C@H](CCC(=O)O)NC(=O)[C@H](CCCCNC(=O)COCCOCCNC(=O)COCCOCCNC(=O)CC[C@H](NC(=O)CCCCCCCCCCCCCCCCC(=O)O)C(=O)O)NC(=O)[C@H](C)NC(=O)[C@H](C)NC(=O)[C@H](CCC(N)=O)NC(=O)CNC(=O)[C@H](CCC(=O)O)NC(=O)[C@H](CC(C)C)NC(=O)[C@H](Cc1ccc(O)cc1)NC(=O)[C@H](CO)NC(=O)[C@H](CO)NC(=O)[C@@H](NC(=O)[C@H](CC(=O)O)NC(=O)[C@H](CO)NC(=O)[C@@H](NC(=O)[C@H](Cc1ccccc1)NC(=O)[C@@H](NC(=O)CNC(=O)[C@H](CCC(=O)O)NC(=O)C(C)(C)NC(=O)[C@@H](N)Cc1cnc[nH]1)[C@@H](C)O)[C@@H](C)O)C(C)C)C(=O)N[C@@H](C)C(=O)N[C@@H](Cc1c[nH]c2ccccc12)C(=O)N[C@@H](CC(C)C)C(=O)N[C@H](C(=O)N[C@@H](CCCNC(=N)N)C(=O)NCC(=O)N[C@@H](CCCNC(=N)N)C(=O)NCC(=O)O)C(C)C | – | human lowest body weight | 1.0 mg once weekly, 39.7-60.2 kg | – | average steady-state concentration | 43.6 nmol/L |
